Results collected from several papers.
Protocols differ between the studies behind these lines. ± gives the spread as reported.
UniProt P11712, sequence (whole entry, looked up): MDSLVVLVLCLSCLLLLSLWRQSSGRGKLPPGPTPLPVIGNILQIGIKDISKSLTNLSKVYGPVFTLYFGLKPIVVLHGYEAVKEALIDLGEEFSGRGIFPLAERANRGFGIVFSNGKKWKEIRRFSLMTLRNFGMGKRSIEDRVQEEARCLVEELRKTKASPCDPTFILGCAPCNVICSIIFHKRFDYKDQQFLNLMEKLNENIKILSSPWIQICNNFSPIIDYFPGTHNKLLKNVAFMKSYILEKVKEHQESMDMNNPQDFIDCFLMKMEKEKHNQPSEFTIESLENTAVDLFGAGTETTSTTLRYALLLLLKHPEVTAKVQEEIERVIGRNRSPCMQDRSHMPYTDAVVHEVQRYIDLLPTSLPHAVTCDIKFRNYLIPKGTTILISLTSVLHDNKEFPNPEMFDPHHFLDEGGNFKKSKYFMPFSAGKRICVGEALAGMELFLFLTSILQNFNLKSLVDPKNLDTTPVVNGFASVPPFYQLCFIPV

O=C([O-])CN1CCN(CC(=O)[O-])CCN(CC(=O)NCCc2ccc3c(c2)C2C=CCC2C(c2cc4c(cc2Br)OCO4)N3)CCN(CC(=O)[O-])CC1.[111In+3] (centres unmarked)
tracer uptake (Hec50 tumour model; host not given, blood; 4 h, tumour-bearing): 0.23 %ID/g

COc1cc2c(cc1O)[C@]1(O)C(=O)c3c(O)cc4c(c3O[C@@H]1CO2)C=CC(C)(C)O4
viability (K562; cell growth or viability, MTT; 100 µg/mL): 7.09%

COc1ccc(-n2c(=O)c(C(=O)C3C(=O)CCCC3=O)nc3c(Cl)cccc32)cc1
parent remaining (Oryza sativa; seedlings; 3 days): ~70%

CC(=O)N[C@H](C(=O)N[C@H](C(=O)N[C@@H](CCCNC(=N)N)C(=O)N1Cc2ccccc2C[C@H]1C(=O)N[C@@H](Cc1ccccc1)C(N)=O)C1CCCCC1)C(C)C
cytokine level (human PBMC; Bio-Plex multiplex, measured: IL-13; 500 µg/mL, 24 h): < 0.3 pg/mL

C=CC(=O)Nc1cc(Nc2nccc(-c3cn(C)c4ccccc34)n2)c(OCC(F)(F)F)nc1N(C)CCN(C)C
activity vs control (Cytochrome P450 2C9 (CYP2C9, Homo sapiens, UniProt P11712); enzyme activity, inhibitor; human, liver microsomes; 33.3 µM): 99.9%

[64Cu+2].c1ccc(CNCc2ccc(CN3CCCN4CCNCCCN(CC4)CC3)cc2)nc1
tissue uptake (CXCR4; NOD/SCID mouse, U87 and U87-stb-CXCR4 xenografts, pancreas; iv, 90 min, no blocking dose, ex vivo): 1.35 ± 0.26 %ID/g

CC(C)=CCc1c2c(c(O)c3c(=O)c(-c4ccc(O)cc4)coc13)CC(C(C)(C)O)O2 (centres unmarked)
viability (K562; cell growth or viability, MTT; 6.25 µg/mL): 53.8%

[64Cu+2].c1cnc(CNCc2ccc(CN3CCCN4CCNCCCN(CC4)CC3)cc2)nc1
tissue uptake (CXCR4; NOD/SCID mouse, U87 and U87-stb-CXCR4 xenografts, pancreas; iv, 90 min, ex vivo, together with: AMD3465 25 mg/kg sc before tracer): 0.84 ± 0.14 %ID/g

Cn1c(=O)oc2ccc(-c3ccc(CC(C#N)NC(=O)C4CNCCCO4)c(F)c3)cc21 (centres unmarked)
subjects with TEAE (measured: skin exfoliation; human; 15 mg single dose, fasted): 0%

COc1ccc(-c2coc3c(CC=C(C)C)c(O)c(CC=C(C)C)c(O)c3c2=O)cc1O
viability (K562; cell growth or viability, MTT; 25 µg/mL): 19.3%

O=C(O)CCC(NP(=O)(O)OCCC[C@@H](NC(=O)CC[C@H](NC(=O)CCCCCNC(=O)c1ccc([18F])cc1)C(=O)O)C(=O)O)C(=O)O (some centres unmarked)
tracer uptake (CWR22Rv1 tumour model; host not given, blood; 1 h, tumour-bearing): 0.104 %ID/g

N#C[C@@H]1CCCN1C(=O)CNC(=O)c1ccnc2ccc(OCCCN3CCN(C(=O)CCc4ccc(O)c(CN5CCN6CC(=O)[O][Al-]([18F])([O]C(=O)C5)[O]c5ccc(CCC(=O)N7CCN(CCCOc8ccc9nccc(C(=O)NCC(=O)N%10CCC[C@H]%10C#N)c9c8)CC7)cc5C6)c4)CC3)cc12 (some centres unmarked)
tracer uptake (U-87 MG tumour model; host not given, tumour; 1 h, tumour-bearing): 41.2 %ID/g

NCC(=O)N1CCC[C@H]1C(=O)N1C[C@H](O)C[C@H]1C(=O)O
−ΔG (iron(III) ion; complex formation, from log β; aqueous 0.15 M NaCl; 37 °C, MAH−3 complex species): 0.507 kcal/mol

CO.COc1ccc2c(c1)c(CC(=O)[O-])c(C)n2C(=O)c1ccc(Cl)cc1.COc1ccc2c(c1)c(CC(=O)[O-])c(C)n2C(=O)c1ccc(Cl)cc1.O.[Co+2].c1ccc(Nc2ccccn2)nc1
cathodic peak potential (calf thymus DNA; cyclic voltammetry; DMSO/buffer; Co(II)/Co(I) couple, without DNA): -680 mV

Some of these lines once more:
COc1cc2c(cc1O)[C@]1(O)C(=O)c3c(O)cc4c(c3O[C@@H]1CO2)C=CC(C)(C)O4
viability (K562; cell growth or viability, MTT; 100 µg/mL): 7.09%
